Published values pooled from the literature.
Every numbered part comes from another study and shows a few of its results, in no order.

Study 1
Target: Replicase polyprotein 1ab, polymerase (rep, Severe acute respiratory syndrome coronavirus 2, UniProt P0DTD1)
Observed: enzyme activity
Action: inhibitor
Concentration: 20 µM
With `CN1C(C)(C)CCCC1(C)C` the inhibition was 3.18%.
`CC(=C(CCOC(=O)C(C)C)SSC(CCOC(=O)C(C)C)=C(C)N(C=O)Cc1cnc(C)nc1N)N(C=O)Cc1cnc(C)nc1N` (stereo in doubt) gave an inhibition of -2.45%.
For `CC(C)(Oc1ccc(Cl)cc1)C(=O)N1CSCC1C(=O)O` (stereo not shown), the inhibition was 1.38%.
`CCOC(N)=O` has an inhibition of -2.07%.
`COc1c(O[C@@H]2O[C@H](CO)[C@@H](O)[C@H](O)[C@H]2O)cc2c(c1OC)-c1ccc(SC)c(=O)cc1[C@@H](NC(C)=O)CC2` gave an inhibition of -0.94%.
With `CCN(CC)CC1CCN(c2ncc3ncnc(Nc4ccc(F)c(Cl)c4)c3n2)CC1` the inhibition was 0.56%.
`N#Cc1cnc2c(Cl)cc(NCc3cn(CCN4CCCCCC4)nn3)cc2c1Nc1ccc(F)c(Cl)c1` gave an inhibition of -0.47%.
For `C[C@@]1(O)[C@H](O)[C@@H](CO)O[C@H]1n1cnc2c(=O)[nH]c(N)nc21`, the inhibition was -0.08%.
With `COc1cccc(-c2cc(F)ccc2[C@H]2Cc3nc(N)nc(C)c3C(=O)N2)n1` the inhibition was -4.5%.
`Cc1cc2c(cc1S(N)(=O)=O)S(=O)(=O)CCC2` has an inhibition of 4.11%.
`CCCCCCCCCCC(=O)O[C@H]1CC[C@H]2[C@@H]3CCC4=CC(=O)CC[C@]4(C)[C@H]3CC[C@]12C` gave an inhibition of -1.48%.
With `C[C@H](CCC(=O)O)[C@H]1CC[C@H]2[C@@H]3[C@H](O)C[C@@H]4C[C@H](O)CC[C@]4(C)[C@H]3C[C@H](O)[C@]12C` the inhibition was -3.61%.
The inhibition of `Cc1nn(C)c2c1C(c1cccc(Cl)c1)=NCCN2` is reported as 2.1%.
`O=C(O)[C@]1(Cc2cccc(Nc3nccs3)n2)CC[C@@H](Oc2cccc(Cl)c2F)CC1` gave an inhibition of 5.78%.
`Cc1cc(C(=O)O)sc1C(N)C(=O)O` (stereo not shown) has an inhibition of -13.9%.
`O=C(O)CNC(=O)c1ccccc1` has an inhibition of -6.07%.
The inhibition of `COCC1=C(C(=O)O)N2C(=O)[C@@H](NC(=O)/C(=N\OC)c3csc(N)n3)[C@H]2SC1` is reported as 4.08%.
The inhibition of `CC1=CC(=O)NS(=O)(=O)O1` is reported as 5.44%.
For `COc1c2occc2cc2ccc(=O)oc12`, the inhibition was 1.51%.
With `c1ccc(C(NCc2cccnc2)(c2ccccc2)c2ccccc2)cc1` the inhibition was -3.34%.
`CSCC1CN(/N=C/c2ccc([N+](=O)[O-])o2)C(=O)O1` (stereo not shown) has an inhibition of -5.51%.
`O=C1NN(C(=O)Nc2ccc(Br)cc2)[C@@H](c2ccccc2)[C@@H]1c1ccccc1` has an inhibition of 0.81%.
With `COc1ccc(-c2cc3nccn3c(Nc3ncccc3C(N)=O)n2)cc1OC` the inhibition was 13.3%.
The inhibition of `CC12CCC(C(Br)C1=O)C2(C)C` (stereo not shown) is reported as 0.07%.
`C/C(=N\NC(=S)NNC(=S)Nc1ccccc1Cl)c1ccccn1` gave an inhibition of 1.24%.

Study 2
Target: Replicase polyprotein 1ab, main protease (rep, Severe acute respiratory syndrome coronavirus 2, UniProt P0DTD1)
Observed: enzyme activity
Action: inhibitor
Concentration: 20 µM
Notes: primary screen
For `N=C(N)N=Nc1ccc(NNC(=N)S)cc1`, the inhibition was 97.5%.
With `O=C(O)c1ccc(N2C(=O)/C(=C\c3ccc(-c4ccc([N+](=O)[O-])cc4)o3)C=C2c2ccccc2)cc1` the inhibition was 61.1%.
`C=C1c2cccc(O)c2C(=O)C2C(=O)[C@]3(O)C(=O)C(C(N)=O)C(=O)[C@@H](N(C)C)[C@@H]3[C@@H](O)[C@H]12` (stereo partly shown) gave an inhibition of 95.2%.

Study 3
Target: Protein C-ets-1 (ETS1, Homo sapiens, UniProt P14921, residues 1-441, full length assumed)
Technique: protein-binding microarray
Molecule type: double-stranded DNA, one strand shown
Medium: in vitro
Concentration: not given
Notes: k-mer, scored over probes, only values ≥0.25
Reading: higher = stronger binding
Residues (chain): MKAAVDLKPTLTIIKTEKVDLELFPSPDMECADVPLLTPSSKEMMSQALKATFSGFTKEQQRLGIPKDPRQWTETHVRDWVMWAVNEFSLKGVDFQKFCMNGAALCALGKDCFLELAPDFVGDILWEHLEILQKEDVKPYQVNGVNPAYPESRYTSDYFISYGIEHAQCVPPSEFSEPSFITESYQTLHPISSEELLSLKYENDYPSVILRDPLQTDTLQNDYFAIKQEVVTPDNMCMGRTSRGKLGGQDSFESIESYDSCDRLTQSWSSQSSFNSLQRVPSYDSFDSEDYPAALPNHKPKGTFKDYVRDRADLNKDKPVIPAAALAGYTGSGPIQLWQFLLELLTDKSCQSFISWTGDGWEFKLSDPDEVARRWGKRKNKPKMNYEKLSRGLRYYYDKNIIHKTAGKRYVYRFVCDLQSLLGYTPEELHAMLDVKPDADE
`ACCGGAAT` has an E-score of 0.443.
With `GGGCGGAC` the E-score was 0.302.
`CCGGTTGA` gave an E-score of 0.287.
For `AGGAAGTG`, the E-score was 0.473.
`GGCGGATA` has an E-score of 0.429.

Study 4
Target: Histone acetyltransferase KAT6A, both winged helices, GST fusion (KAT6A, Homo sapiens, UniProt Q92794, residues 1-181)
Technique: protein binding microarray
Molecule type: double-stranded DNA, one strand shown
Medium: in vitro
Concentration: not given
Notes: 8-mer, flanks averaged, mean of 2 arrays, mostly near background
Reference: not given
Reading: higher = stronger binding
Residues (chain): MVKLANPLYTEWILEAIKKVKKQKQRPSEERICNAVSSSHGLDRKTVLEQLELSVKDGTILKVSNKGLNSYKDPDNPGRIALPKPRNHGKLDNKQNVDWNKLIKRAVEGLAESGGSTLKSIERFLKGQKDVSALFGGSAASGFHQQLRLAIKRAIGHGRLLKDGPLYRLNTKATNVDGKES
`AACTCATC` gave an E-score of 0.0201.
For `CTCCCTAC`, the E-score was -0.0844.
With `GAGTCTAA` the E-score was -0.115.
`AATTGCCA` has an E-score of -0.199.
`ACCAGACC` gave an E-score of -0.0601.
With `GAACTACC` the E-score was -0.0636.
The E-score of `GCGGGCAC` is reported as 0.197.
With `CAAGTCCC` the E-score was -0.0923.

Study 5
Target: Ras GTPase-activating protein-binding protein 1, full length (G3BP1, Homo sapiens, UniProt Q13283)
Sequence of UniProt Q13283 (whole entry, looked up): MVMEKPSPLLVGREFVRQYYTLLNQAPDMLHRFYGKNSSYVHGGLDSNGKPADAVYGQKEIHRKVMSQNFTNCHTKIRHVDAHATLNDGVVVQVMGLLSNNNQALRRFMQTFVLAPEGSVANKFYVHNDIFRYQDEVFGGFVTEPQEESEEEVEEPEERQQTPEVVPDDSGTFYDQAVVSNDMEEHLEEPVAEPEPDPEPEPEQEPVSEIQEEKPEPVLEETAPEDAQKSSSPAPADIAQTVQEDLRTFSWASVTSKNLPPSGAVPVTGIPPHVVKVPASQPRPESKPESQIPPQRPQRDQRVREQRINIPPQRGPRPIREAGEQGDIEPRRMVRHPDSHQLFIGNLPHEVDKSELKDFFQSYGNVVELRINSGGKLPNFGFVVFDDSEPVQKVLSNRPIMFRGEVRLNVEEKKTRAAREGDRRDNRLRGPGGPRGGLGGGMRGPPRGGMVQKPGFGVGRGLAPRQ
Technique: RNA Bind-n-Seq
Molecule type: RNA
Medium: in vitro
Concentration: 200 nM
Notes: whole 134-nt RNA, ends assumed
Added: 150 mM LiCl
Reference: input library
Reading: higher = stronger binding
Each molecule: 7-deaza-guanosine replaces G
All sequences stand within: GGGAGUUCUACAGUCCGACGAUC … UGGAAUUCUCGGGUGUCAAGG
`UCCUGUGCUACACAUCGUAUGUACCGAAUCGGGAAAAAAAGGGUUUUUGGGAAAAAGGGAAAGUAUUAUGUUACGCCGUUCGGAUCUGCA` gave a log2 enrichment of -0.83.
`UGGGCGGUGGAUUUUGUUUAUUUUUUUAGCUCAUUUCCAGGGGUGGGAAUUUUUUUUUAAUAUGUGUCAUGAAUAAAGUUGUUUUUGAAA` gave a log2 enrichment of 0.828.
The log2 enrichment of `UGGCCCUGGUGGCAUGCGGGGAGGAAGAGGUGGCCUCAUGGAUCGUGGUGGUCCCGGUGGAACGUUCAGAGGUGGCCGUGGUGGAGACAG` is reported as 0.611.
`UCCUGUGCUACACAUCGUAUGUACCGAAUCGGGGCCCCCGGGGCCCCCGGGCCCCCGGGGAAAGUAUUAUGUUACGCCGUUCGGAUCUGC` gave a log2 enrichment of -1.71.
`UUAAGGAAGGACACUGAGUCAUGCACAAGUCCUUGCCUUCUUGGUGCCCCUCGGAAAGCACAAGACCCCUCCUCUGCUGGGUGUGAUCAA` has a log2 enrichment of 0.824.
The log2 enrichment of `CUCAAGUCCUGUGCUACACAUCGUAUGUACCGAAUCGGUGGUUUUUGGUUUGGAAAGUAUUAUGUUACGCCGUUCGGAUCUGCACUUCCA` is reported as 0.31.
For `UCAAGUCCUGUGCUACACAUCGUAUGUACCGAAUCGGAAAGGAGGAAAAAAAGGAAAGUAUUAUGUUACGCCGUUCGGAUCUGCACUUCC`, the log2 enrichment was -0.11.
With `ACCAUGCAGCUGGGCAUCUUUGGGAAGUGGGGCAAGGGGGGGAUAGGGAGGGGGGUAACACUUUGGGAACAGGUGGUCCCAGGUCGUUUC` the log2 enrichment was -0.00624.

Study 6
Cell line: HEK-293T
Observed: pseudovirus infection
Organism: VSV pseudotyped with SARS-CoV-2 spike
Concentration: 10 µM
Time: 16 h
Reference: vehicle-treated
`N#CC1(c2ccc(NC(=O)c3cccnc3NCc3ccncc3)cc2)CCCC1` gave a GFP-positive cells of 98.9%.
`CCCCCCCCCC(=O)O[C@H]1CC[C@H]2[C@@H]3CCC4=CC(=O)CC[C@@H]4[C@H]3CC[C@]12C` has a GFP-positive cells of 93.1%.
For `COc1ccc(CN=c2[nH]c(N3CCC[C@H]3CO)ncc2C(=O)NCc2ncccn2)cc1Cl`, the GFP-positive cells was 102%.

Excerpt of the above (study 1):
For `CC(C)(Oc1ccc(Cl)cc1)C(=O)N1CSCC1C(=O)O` (stereo not shown), the inhibition was 1.38%.
`CCOC(N)=O` has an inhibition of -2.07%.
`COc1c(O[C@@H]2O[C@H](CO)[C@@H](O)[C@H](O)[C@H]2O)cc2c(c1OC)-c1ccc(SC)c(=O)cc1[C@@H](NC(C)=O)CC2` gave an inhibition of -0.94%.
With `CCN(CC)CC1CCN(c2ncc3ncnc(Nc4ccc(F)c(Cl)c4)c3n2)CC1` the inhibition was 0.56%.
`N#Cc1cnc2c(Cl)cc(NCc3cn(CCN4CCCCCC4)nn3)cc2c1Nc1ccc(F)c(Cl)c1` gave an inhibition of -0.47%.
